Results from different studies.
Numbers after ± are the reported error.
ATP2A2: ATP2A2 (Sus scrofa, UniProt P11607)
Sequence of UniProt P11607 (whole entry, looked up): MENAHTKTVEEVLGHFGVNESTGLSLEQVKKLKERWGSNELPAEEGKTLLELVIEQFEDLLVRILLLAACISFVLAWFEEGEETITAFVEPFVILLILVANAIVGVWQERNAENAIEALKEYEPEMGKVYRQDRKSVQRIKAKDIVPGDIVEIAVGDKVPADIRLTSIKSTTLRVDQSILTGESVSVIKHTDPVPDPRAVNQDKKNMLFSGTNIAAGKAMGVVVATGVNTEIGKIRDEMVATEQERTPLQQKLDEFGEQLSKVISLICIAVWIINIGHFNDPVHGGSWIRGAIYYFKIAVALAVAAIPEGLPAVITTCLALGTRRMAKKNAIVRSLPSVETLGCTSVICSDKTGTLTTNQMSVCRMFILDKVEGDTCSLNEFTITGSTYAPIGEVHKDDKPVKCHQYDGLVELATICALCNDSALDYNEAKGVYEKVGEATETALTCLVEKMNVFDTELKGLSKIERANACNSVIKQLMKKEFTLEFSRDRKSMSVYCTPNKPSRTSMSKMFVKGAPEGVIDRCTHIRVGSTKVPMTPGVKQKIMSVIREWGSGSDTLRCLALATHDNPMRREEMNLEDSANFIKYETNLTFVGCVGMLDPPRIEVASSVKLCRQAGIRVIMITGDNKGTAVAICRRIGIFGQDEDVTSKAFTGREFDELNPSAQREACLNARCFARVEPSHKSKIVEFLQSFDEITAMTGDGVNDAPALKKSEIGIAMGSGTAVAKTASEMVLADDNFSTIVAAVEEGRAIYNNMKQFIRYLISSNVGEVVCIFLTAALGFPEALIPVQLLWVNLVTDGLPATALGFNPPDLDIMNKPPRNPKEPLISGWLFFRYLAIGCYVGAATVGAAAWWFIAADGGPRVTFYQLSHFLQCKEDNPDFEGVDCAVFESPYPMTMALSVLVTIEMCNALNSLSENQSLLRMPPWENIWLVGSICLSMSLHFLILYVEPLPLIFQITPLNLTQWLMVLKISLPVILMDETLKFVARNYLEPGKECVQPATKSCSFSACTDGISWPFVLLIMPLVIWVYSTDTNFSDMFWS
Ppard: Peroxisome proliferator-activated receptor delta (Ppard, Mus musculus, UniProt P35396)
Sequence of UniProt P35396 (whole entry, looked up): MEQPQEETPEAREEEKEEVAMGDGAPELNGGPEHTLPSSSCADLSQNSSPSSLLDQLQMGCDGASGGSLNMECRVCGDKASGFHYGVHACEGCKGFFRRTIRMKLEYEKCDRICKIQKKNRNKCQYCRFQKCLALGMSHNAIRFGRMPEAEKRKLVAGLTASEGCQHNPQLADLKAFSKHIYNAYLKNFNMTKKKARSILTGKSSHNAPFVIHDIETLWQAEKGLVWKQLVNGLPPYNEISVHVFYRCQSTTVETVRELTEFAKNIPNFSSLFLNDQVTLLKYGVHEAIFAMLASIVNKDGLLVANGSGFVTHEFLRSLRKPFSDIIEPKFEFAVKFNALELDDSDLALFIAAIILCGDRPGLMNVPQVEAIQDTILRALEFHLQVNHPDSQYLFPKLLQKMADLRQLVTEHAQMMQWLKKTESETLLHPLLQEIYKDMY
Sequence of UniProt P40337 (whole entry, looked up): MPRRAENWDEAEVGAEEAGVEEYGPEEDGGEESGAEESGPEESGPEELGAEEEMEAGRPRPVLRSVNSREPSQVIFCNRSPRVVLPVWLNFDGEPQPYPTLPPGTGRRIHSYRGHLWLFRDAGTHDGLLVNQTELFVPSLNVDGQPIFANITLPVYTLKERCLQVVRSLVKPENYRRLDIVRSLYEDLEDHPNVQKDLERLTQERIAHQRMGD
Sequence of UniProt P35368 (whole entry, looked up): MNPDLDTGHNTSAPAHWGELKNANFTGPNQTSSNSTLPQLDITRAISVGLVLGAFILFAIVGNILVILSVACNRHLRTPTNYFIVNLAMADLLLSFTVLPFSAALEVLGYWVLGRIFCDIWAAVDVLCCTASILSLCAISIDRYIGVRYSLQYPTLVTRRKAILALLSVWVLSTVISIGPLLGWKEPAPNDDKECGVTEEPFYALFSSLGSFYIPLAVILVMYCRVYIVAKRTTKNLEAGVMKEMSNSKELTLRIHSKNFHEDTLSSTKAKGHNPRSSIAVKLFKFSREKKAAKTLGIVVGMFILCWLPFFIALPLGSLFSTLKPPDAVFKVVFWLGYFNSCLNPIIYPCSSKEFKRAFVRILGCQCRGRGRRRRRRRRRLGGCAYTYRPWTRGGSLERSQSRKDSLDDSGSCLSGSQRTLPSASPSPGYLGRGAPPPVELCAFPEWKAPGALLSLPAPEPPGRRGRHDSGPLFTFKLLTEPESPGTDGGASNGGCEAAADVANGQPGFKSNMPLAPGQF
Sequence of UniProt P35414 (whole entry, looked up): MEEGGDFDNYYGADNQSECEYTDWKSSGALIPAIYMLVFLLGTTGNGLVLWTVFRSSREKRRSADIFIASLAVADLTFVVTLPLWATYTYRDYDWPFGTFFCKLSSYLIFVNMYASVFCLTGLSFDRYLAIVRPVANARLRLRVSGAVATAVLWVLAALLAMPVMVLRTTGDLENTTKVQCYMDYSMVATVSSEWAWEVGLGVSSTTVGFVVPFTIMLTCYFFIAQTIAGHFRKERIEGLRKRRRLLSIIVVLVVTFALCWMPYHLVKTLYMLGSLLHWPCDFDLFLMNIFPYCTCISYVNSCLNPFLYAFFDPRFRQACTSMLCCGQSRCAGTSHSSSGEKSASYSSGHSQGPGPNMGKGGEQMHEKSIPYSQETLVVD
Sequence of UniProt P34995 (whole entry, unmodified, looked up): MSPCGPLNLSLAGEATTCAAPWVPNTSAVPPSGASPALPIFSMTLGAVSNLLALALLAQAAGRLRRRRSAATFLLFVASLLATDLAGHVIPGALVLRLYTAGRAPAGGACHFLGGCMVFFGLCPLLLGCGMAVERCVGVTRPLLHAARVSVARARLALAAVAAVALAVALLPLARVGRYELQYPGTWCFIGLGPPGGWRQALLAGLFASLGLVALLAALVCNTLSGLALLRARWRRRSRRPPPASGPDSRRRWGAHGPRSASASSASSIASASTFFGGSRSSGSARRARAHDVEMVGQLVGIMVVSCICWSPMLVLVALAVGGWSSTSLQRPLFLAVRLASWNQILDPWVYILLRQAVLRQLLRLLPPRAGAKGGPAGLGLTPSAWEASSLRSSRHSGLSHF
Sequence of UniProt Q05941 (whole entry, looked up): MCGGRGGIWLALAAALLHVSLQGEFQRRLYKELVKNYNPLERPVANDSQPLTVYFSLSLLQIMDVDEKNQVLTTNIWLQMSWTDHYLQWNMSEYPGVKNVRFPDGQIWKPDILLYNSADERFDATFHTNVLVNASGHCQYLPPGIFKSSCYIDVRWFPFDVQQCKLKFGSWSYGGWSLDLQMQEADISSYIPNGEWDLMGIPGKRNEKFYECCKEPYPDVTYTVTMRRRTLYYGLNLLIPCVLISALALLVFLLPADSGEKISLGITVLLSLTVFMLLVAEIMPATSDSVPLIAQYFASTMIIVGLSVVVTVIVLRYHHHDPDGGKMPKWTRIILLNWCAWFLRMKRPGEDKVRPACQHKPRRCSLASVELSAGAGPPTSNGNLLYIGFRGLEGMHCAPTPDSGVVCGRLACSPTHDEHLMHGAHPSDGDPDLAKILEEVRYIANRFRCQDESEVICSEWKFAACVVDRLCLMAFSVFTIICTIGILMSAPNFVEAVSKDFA
Sequence of UniProt Q969F8 (whole entry, unmodified, looked up): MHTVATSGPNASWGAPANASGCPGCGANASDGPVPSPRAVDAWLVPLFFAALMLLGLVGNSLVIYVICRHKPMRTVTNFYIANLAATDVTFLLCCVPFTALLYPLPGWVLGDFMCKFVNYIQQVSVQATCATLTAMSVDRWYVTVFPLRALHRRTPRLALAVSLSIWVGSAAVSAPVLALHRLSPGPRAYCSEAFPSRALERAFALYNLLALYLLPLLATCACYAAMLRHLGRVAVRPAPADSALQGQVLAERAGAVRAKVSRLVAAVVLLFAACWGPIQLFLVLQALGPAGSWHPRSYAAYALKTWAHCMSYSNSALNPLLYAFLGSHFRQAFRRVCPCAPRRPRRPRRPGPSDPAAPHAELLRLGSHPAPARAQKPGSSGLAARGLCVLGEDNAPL
Sequence of UniProt Q9H8M2 (whole entry, looked up): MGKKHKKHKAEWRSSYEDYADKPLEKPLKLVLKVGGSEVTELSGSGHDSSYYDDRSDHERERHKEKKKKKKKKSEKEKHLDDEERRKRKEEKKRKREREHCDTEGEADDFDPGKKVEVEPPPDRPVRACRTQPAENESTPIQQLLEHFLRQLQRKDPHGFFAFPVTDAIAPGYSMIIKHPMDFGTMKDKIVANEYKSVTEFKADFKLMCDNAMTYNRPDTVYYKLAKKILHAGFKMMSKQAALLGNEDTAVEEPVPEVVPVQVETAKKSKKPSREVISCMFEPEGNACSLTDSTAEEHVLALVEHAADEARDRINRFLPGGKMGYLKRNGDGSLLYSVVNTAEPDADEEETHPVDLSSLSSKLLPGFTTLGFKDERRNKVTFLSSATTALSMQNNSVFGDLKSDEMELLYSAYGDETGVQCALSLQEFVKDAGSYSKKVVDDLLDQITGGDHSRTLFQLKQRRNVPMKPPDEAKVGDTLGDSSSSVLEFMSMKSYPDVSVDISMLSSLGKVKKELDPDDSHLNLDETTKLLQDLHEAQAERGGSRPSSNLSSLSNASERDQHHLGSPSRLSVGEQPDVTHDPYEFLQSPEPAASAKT
Sequence of UniProt Q96RI1 (whole entry, looked up): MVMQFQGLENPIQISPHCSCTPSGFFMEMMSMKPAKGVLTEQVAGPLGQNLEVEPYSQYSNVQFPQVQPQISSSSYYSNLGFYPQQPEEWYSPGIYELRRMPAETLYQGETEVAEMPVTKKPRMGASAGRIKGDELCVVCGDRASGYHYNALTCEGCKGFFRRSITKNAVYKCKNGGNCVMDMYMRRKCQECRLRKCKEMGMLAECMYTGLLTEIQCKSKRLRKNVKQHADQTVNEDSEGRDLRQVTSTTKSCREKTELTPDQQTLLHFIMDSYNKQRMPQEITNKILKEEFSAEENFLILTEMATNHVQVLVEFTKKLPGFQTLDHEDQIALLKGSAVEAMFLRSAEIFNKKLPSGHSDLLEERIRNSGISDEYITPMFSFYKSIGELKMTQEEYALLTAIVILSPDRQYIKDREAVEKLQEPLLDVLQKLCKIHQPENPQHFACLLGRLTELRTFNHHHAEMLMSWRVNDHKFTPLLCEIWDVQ

Structure (SMILES) | target | test | test system | conditions | scale | Emax
CCCCCCCOCCc1ccc2[nH]cnc2c1 | ATP2A2 | ATPase Vmax increase, activator | pig microsomes | 0.1 to 50 µM | relative to: vehicle | 16.2 ± 2.9%
CNC[C@H](O)c1cccc(O)c1 | Alpha-1B adrenergic receptor (ADRA1B, Homo sapiens, UniProt P35368) | calcium mobilization, agonist | COS-7, stably expressing receptor | – | relative to: 3 µM ionomycin | ~80%
CCCCC[C@H](O)/C=C/[C@H]1[C@H](O)CC(=O)[C@@H]1C/C=C\CCCC(=O)O | Prostaglandin E2 receptor EP1 subtype (PTGER1, Homo sapiens, UniProt P34995, F189A) | IP1 accumulation, agonist | AD293 | 1 h, EP1 F189A mutant | – | 39.2 ± 4.45%
FC1(F)Oc2ccc(CCOCCCCCc3ccccc3)cc2O1 | ATP2A2 | ATPase Vmax increase, activator | pig microsomes | 0.1 to 50 µM | relative to: vehicle | ~16%
C[C@@H]1C[C@H]2O[C@@]3(O[C@@H]2C(C)(C)O)[C@H](O)[C@@]2(C)[C@@H]4CC[C@H]5C(C)(C)[C@@H](O[C@@H]6OC[C@@H](O)[C@H](O)[C@H]6O)CC[C@@]56C[C@@]46CC[C@]2(C)[C@@H]13 | Bile acid receptor, with PGC1α (NR1H4, Homo sapiens, UniProt Q96RI1) | reporter gene, agonist, mammalian two-hybrid | COS-7 co-transfected with RXR | – | relative to: GW4064 | 24.9%
c1ccc(CCCCCOCCc2ccc3[nH]cc(C4CCCC4)c3c2)cc1 | ATP2A2 | ATPase Vmax increase, activator | pig microsomes | 0.1 to 50 µM | relative to: vehicle | 19 to 25%
CCOCc1nc(O)c(-c2nnc(Cc3ccc(Cl)cn3)o2)c(O)c1-c1c(OC)cccc1OC | Apelin receptor (APLNR, Homo sapiens, UniProt P35414) | Gα13/PDZ–RhoGEF activation, agonist, BRET biosensor | HEK293 | – | – | 80 ± 7%
c1ccc(CCCCCOCCc2ccc3[nH]cnc3c2)cc1 | ATP2A2 | ATPase Vmax increase, activator | pig microsomes | 0.1 to 50 µM | relative to: vehicle | ~17%
CC[C@H](C)[C@H](NC(=O)[C@H](CCC(N)=O)NC(=O)[C@H](CCCNC(=N)N)NC(=O)[C@H](CO)NC(=O)[C@H](Cc1c[nH]cn1)NC(=O)[C@@H]1CCCN1C(=O)[C@H](C)NC(=O)[C@H](CO)NC(=O)[C@H](CC(C)C)NC(=O)CNC(=O)[C@@H]1CCCN1C(=O)[C@H](CCC(N)=O)NC(=O)[C@H](CCC(N)=O)NC(=O)[C@H](CCCNC(=N)N)NC(=O)[C@H](CO)NC(=O)CNC(=O)[C@H](CO)NC(=O)[C@H](CO)NC(=O)[C@H](CCC(=O)O)NC(=O)[C@@H]1CCCN1C(=O)[C@@H]1CCCN1C(=O)[C@@H]1CCCN1C(=O)[C@H](CO)NC(=O)[C@H](CC(C)C)NC(=O)[C@H](CO)NC(=O)[C@@H](NC(=O)CN)[C@@H](C)O)C(=O)N1CCC[C@H]1C(=O)N[C@@H](C)C(=O)N1CCC[C@H]1C(=O)N[C@@H](CCC(N)=O)C(=O)NCC(=O)N[C@@H](C)C(=O)N[C@H](C(=O)N[C@@H](CC(C)C)C(=O)N[C@H](C(=O)N[C@@H](CCC(N)=O)C(=O)N[C@@H](CCCNC(=N)N)C(=O)N[C@@H](CCC(=O)O)C(=O)N[C@@H](CCCCN)C(=O)N[C@@H](CC(=O)O)C(=O)N[C@@H](CC(C)C)C(=O)N1CCC[C@H]1C(=O)N[C@@H](CC(N)=O)C(=O)N[C@@H](Cc1ccc(O)cc1)C(=O)N[C@@H](CC(N)=O)C(=O)N[C@@H](Cc1c[nH]c2ccccc12)C(=O)N[C@@H](CC(N)=O)C(=O)N[C@@H](CO)C(=O)N[C@@H](Cc1ccccc1)C(=O)NCC(=O)N[C@@H](CC(C)C)C(=O)N[C@@H](CCCNC(=N)N)C(=O)N[C@@H](Cc1ccccc1)C(N)=O)C(C)C)C(C)C | KiSS-1 receptor (KISS1R, Homo sapiens, UniProt Q969F8, E193A) | IP1 accumulation, agonist, HTRF | HEK293 expressing E193A mutant | 1 h, 37 °C, low response, poor fit | – | 0.53%
CSc1ccc(C(=O)/C=C/c2cc(C)c(OC(C)(C)C(=O)O)c(C)c2)cc1 | Ppard | reporter gene, agonist, luciferase reporter | mouse | – | relative to: maximal control activation | 67%
Cc1ccc(NC(=O)/C=C/c2cccs2)cc1 | Neuronal acetylcholine receptor subunit alpha-7 (Chrna7, Rattus norvegicus, UniProt Q05941) | ion current, positive modulator | – | with: acetylcholine 30 µM | relative to: control | 196 ± 14%
CCO[C@H](COc1ccc(C(F)(F)F)cc1)CSc1ccc(OCC(=O)O)c(C)c1 | Ppard | reporter gene, agonist, luciferase reporter | mouse | – | relative to: maximal control activation | 81%
COc1cc(-c2cn(C)c(=O)c3cnccc23)cc(OC)c1CN1CCN(CCCCCOc2cc(-c3scnc3C)ccc2CNC(=O)[C@@H]2C[C@@H](O)CN2C(=O)[C@@H](NC(=O)C2(F)CC2)C(C)(C)C)CC1 | VHL/BRD9 (Homo sapiens, UniProt P40337+Q9H8M2) | BRD9-VHL ternary complex, NanoBiT | HEK293T | – | relative to: DMSO | 847%
